Measured values gathered from unrelated publications.
Each numbered part is a random draw from the data of one study; scales do not carry over between parts.

Series 1
Target: Interferon regulatory factor 5, full length, phosphomimetic (IRF5, Homo sapiens, UniProt Q13568-2, residues 1-514, S451D/S453D/S456D/S462D)
Method: protein-binding microarray
Form: double-stranded DNA, one strand shown
Sample: in vitro
Concentration: 940 nM top
Setting: 60-bp whole probe
Added: salmon DNA 0.4 mg/ml
Relative to: random background probes
Reading: higher = stronger binding
All sequences stand within: GCCTAGCAC … GTCTTGATTCGCTTGACGCTGCTG
For `GTTAGTGGGATGGCTGTGGTGTGCTAG`, “fitted relative affinity” read -0.398 z-score.
Under “fitted relative affinity”, `TCATCTATCTCTGTTTTACTGTGCTAG` is recorded as 1.47 z-score.
`GACGGACTGTTTTTCCTGACGTGCTAG` — result for “fitted relative affinity”: 0.079 z-score.
`TCAGTTGTAGTTTTCATACTGTGCTAG`: “fitted relative affinity” 0.409 z-score.
Under “fitted relative affinity”, `CTAGGACTGGGACTGGGTTAGTGCTAG` is recorded as -0.545 z-score.
`GACGGACTGGAACTGGGGACGTGCTAG`: “fitted relative affinity” -0.477 z-score.
Under “fitted relative affinity”, `GACGGTATCGACACTGGGGAGGTGCTA` is recorded as 3.72 z-score.
Under “fitted relative affinity”, `GTCACTCTCTGGGCTGTGGGTGTGCTA` is recorded as 0.551 z-score.
`CTAGATTTCAGTTCCGATTAGTGCTAG`: “fitted relative affinity” 1.75 z-score.
`TTAGGTTTCGACGCTGGGTTAGTGCTA` — result for “fitted relative affinity”: 7.97 z-score.
For `GGCAGCCTCTGCATTCCCTCAGTGCTA`, “fitted relative affinity” read -0.11 z-score.
`GAAGGTATCGGTATCGGGACGTGCTAG`: “fitted relative affinity” 7.52 z-score.
Under “fitted relative affinity”, `TGATTTTGGTCTTTCTGTTTGTGCTAG` is recorded as 1.54 z-score.
`GTAGGACTGGGGACTGGGTTAGTGCTA`: “fitted relative affinity” -0.679 z-score.
`TTAGAACTGAATTTCGATTAGTGCTAG` — result for “fitted relative affinity”: 0.522 z-score.
`TCATGTTTCCTTCCTCTACTGTGCTAG`: “fitted relative affinity” 1.52 z-score.
For `GACGGACTGGACACTGGGGGCGTGCTA`, “fitted relative affinity” read -0.398 z-score.
`GACGGACTGCTTGTCCTGACGTGCTAG`: “fitted relative affinity” -1.04 z-score.
For `ATGCCTTTCTCTTGGAGCTTGTGCTAG`, “fitted relative affinity” read 0.669 z-score.

Series 2
Target: PABPC1L2, full length, GST fusion (mouse, UniProt A0ABA7IW68)
Method: RNAcompete
Form: RNA
Sample: in vitro
Concentration: 20 nM
Setting: 7-mer, probes averaged, single round
Relative to: mean of 7-mers
Reading: higher = stronger binding
Target sequence (chain): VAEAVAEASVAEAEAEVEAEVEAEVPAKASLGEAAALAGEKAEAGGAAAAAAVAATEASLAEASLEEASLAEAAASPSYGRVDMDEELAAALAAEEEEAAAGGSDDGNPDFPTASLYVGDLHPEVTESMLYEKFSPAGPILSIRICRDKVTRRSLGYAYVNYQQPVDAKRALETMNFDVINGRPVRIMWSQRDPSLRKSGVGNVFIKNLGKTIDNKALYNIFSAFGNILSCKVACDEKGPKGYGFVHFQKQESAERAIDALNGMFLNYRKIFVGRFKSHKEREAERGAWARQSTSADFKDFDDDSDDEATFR
For `AAAGUGU`, the 7-mer Z-score was 1.64.
For `CAGCCCG`, the 7-mer Z-score was -0.365.
`CAUUGGG` gave a 7-mer Z-score of 0.0913.
`UGAAACG` has a 7-mer Z-score of -0.0591.
The 7-mer Z-score of `CGAGGAU` is reported as 0.0225.
`CUUUCUA` has a 7-mer Z-score of -0.34.
`UGAUCCC` gave a 7-mer Z-score of -0.362.
`UUGUCAA` has a 7-mer Z-score of -0.32.
`GCCGGCC` gave a 7-mer Z-score of -0.434.
For `UUAACAU`, the 7-mer Z-score was -0.0881.
With `UACACGG` the 7-mer Z-score was 0.274.
`ACUACCG` gave a 7-mer Z-score of -0.204.
For `AGUCCCU`, the 7-mer Z-score was -0.289.
`GAGACAG` has a 7-mer Z-score of 0.0478.
The 7-mer Z-score of `UGUCAAU` is reported as -0.289.
For `CGAAGAG`, the 7-mer Z-score was -0.11.
`GUGAAGA` gave a 7-mer Z-score of -0.0428.
For `AGACCCG`, the 7-mer Z-score was -0.311.
`CUCACAG` has a 7-mer Z-score of -0.175.
With `GUACCCG` the 7-mer Z-score was -0.293.
For `CGGGACA`, the 7-mer Z-score was 0.312.
`CCCGACC` has a 7-mer Z-score of -0.237.
With `CGAGGAC` the 7-mer Z-score was 0.12.
With `UACGAGU` the 7-mer Z-score was -0.171.
The 7-mer Z-score of `GCUUAGC` is reported as -0.179.

Series 3
Target: Ras GTPase-activating protein-binding protein 1, full length (G3BP1, Homo sapiens, UniProt Q13283)
Sequence of UniProt Q13283 (whole entry, looked up): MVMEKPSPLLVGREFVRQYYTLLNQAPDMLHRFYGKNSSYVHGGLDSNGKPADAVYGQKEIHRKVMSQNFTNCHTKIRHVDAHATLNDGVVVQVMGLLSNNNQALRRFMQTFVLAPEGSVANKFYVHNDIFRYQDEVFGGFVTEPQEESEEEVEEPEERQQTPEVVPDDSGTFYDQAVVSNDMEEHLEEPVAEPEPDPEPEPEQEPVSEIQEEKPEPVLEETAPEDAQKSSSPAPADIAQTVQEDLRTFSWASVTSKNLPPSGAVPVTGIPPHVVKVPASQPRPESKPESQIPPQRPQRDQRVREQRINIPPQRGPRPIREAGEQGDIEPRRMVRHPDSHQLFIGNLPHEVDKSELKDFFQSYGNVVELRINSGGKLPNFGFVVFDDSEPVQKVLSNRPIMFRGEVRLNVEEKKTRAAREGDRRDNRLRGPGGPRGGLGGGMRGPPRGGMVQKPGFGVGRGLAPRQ
Method: RNA Bind-n-Seq
Form: RNA
Sample: in vitro
Concentration: 200 nM
Setting: whole 134-nt RNA, ends assumed
Added: 150 mM KCl
Relative to: input library
Reading: higher = stronger binding
The log2 enrichment of `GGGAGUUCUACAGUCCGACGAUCCAAGUCCUGUGCUACACAUCGUAUGUACCGAAUCGGAAAGGUUUUUGGAAAAAGGAAAGUAUUAUGUUACGCCGUUCGGAUCUGCACUUCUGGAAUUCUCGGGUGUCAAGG` is reported as -1.19.
`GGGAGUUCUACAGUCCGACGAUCAGUCCUGUGCUACACAUCGUAUGUACCGAAUCGGUUUUUGGGUUUUUGGUUUUUGGGGAAAGUAUUAUGUUACGCCGUUCGGAUCUGCACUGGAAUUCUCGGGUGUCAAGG` gave a log2 enrichment of -1.01.
`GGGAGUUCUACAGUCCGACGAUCGUCCUGUGCUACACAUCGUAUGUACCGAAUCGGGGUUUUGGGGUUUUGGGUUUUGGGGAAAGUAUUAUGUUACGCCGUUCGGAUCUGCACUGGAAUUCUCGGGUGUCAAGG` has a log2 enrichment of 0.234.
For `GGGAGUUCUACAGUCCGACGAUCCACAGACAACACGCACCCACACAGACACAGAGGGAAUGGGUUGGGAUGGGGACAGGGUGCACAGCAGGGCGGGGUAGGACCCCAGCCCCUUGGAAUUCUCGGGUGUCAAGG`, the log2 enrichment was 2.02.
The log2 enrichment of `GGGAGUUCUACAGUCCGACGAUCUGGGAGGUGGAUUUUGUUUAUUUUUUUAGCUCAUUUCCAGGGGUGGGAAUUUUUUUUUAAUAUGUGUCAUGAAUAAAGUUGUUUUUGAGAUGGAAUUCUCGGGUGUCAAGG` is reported as 0.768.
For `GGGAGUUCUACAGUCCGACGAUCAAGUCCUGUGCUACACAUCGUAUGUACCGAAUCGGGGAGGGGUUUUUGGGGAGGGGAAAGUAUUAUGUUACGCCGUUCGGAUCUGCACUUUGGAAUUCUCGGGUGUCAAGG`, the log2 enrichment was 0.894.
`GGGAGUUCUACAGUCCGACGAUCGCAGGCAGUAAAAACAAAUGGAAAUGCUUCGGAUAGUGGCAGGGGUGGGGGUUGCUAAGGAAAGGGUGGGAUGGGAGUGGGUAAAGAGUUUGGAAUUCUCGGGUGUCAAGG` gave a log2 enrichment of 1.25.
`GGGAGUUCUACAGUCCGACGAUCUGCCGUGCCGGGUGGACGGUCUGCUCGCCUGUCUGCGUGACGAAACUGAGGCACAAAGACGCGCUAUGCCAGCGGCGGGUAUAGCAAGGGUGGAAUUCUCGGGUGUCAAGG` gave a log2 enrichment of -0.506.
`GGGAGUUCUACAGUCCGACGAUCACCAUGCAGGUGGGCAUCUUUGGGAAGUGGGGCAAGGGGGGGAUAGGGAGGGGGGUAACACUUUGGGAACAGGAAAUCCCAGGUCGUUUCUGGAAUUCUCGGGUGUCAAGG` gave a log2 enrichment of 0.797.

Series 4
Target: Histone acetyltransferase KAT6A, both winged helices, GST fusion (KAT6A, Homo sapiens, UniProt Q92794, residues 1-181)
Method: protein binding microarray
Form: double-stranded DNA, one strand shown
Sample: in vitro
Concentration: not given
Setting: 8-mer, flanks averaged, mean of 2 arrays, mostly near background
Relative to: not given
Reading: higher = stronger binding
Construct (chain): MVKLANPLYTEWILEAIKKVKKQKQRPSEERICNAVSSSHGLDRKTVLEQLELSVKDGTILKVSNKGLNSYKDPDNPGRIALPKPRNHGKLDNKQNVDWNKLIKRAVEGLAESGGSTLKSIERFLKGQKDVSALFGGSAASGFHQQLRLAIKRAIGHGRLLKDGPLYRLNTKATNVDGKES
With `AAACAGAC` the E-score was 0.0303.
`ATCTATTA` has an E-score of -0.0545.
`GGAACAAC` gave an E-score of 0.123.
`CCCAGGAG` gave an E-score of -0.233.
The E-score of `ACCCATTC` is reported as -0.237.
The E-score of `CACTGCCG` is reported as 0.164.
For `AGTGGCCG`, the E-score was -0.0197.
For `GACAGATA`, the E-score was -0.019.
With `GCAGATAC` the E-score was -0.0366.
The E-score of `CCCTGAAC` is reported as -0.0402.
For `ACCATACC`, the E-score was -0.0689.
`AATTCACA` has an E-score of -0.00247.
For `AAGTGCCG`, the E-score was 0.248.
The E-score of `AGCAGAGG` is reported as -0.213.
`CAGCCAAG` has an E-score of -0.212.
With `TACATTGA` the E-score was -0.0979.
The E-score of `AAGCAGTC` is reported as -0.138.
`ACTTCATC` has an E-score of -0.0985.
`GTTCGGAA` gave an E-score of 0.0126.
`AAACTGGA` has an E-score of -0.134.
`CAATGGGC` gave an E-score of -0.108.
`TAGTGAAA` gave an E-score of -0.26.
`ACTTTGTG` has an E-score of -0.0839.
With `CAGTTCCA` the E-score was -0.104.
`GCTTGACA` gave an E-score of 0.0324.

Repeated from above (series 4):
The E-score of `ACCCATTC` is reported as -0.237.
`AAACTGGA` has an E-score of -0.134.
`GCTTGACA` gave an E-score of 0.0324.
For `GACAGATA`, the E-score was -0.019.
The E-score of `CCCTGAAC` is reported as -0.0402.
The E-score of `AGCAGAGG` is reported as -0.213.
`CAGCCAAG` has an E-score of -0.212.
For `AAGTGCCG`, the E-score was 0.248.
